Results of several laboratories.
Each numbered part is a random draw from the data of one study; scales do not carry over between parts.

Block 1
Target: PABPC1L2, full length, GST fusion (mouse, UniProt A0ABA7IW68)
Technique: RNAcompete
Form: RNA
Sample: in vitro
Concentration: 20 nM
Setting: 7-mer, probes averaged, single round
Relative to: mean of 7-mers
Direction: higher = stronger binding
Construct (chain): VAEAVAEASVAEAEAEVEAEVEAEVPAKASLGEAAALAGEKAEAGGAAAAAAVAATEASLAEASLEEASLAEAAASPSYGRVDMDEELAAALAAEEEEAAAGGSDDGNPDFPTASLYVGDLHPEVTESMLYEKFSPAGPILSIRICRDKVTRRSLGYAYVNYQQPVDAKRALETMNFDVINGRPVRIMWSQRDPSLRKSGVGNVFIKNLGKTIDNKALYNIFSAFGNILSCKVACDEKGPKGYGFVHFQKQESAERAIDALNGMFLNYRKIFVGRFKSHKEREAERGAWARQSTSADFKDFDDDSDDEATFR
Sequence	7-mer Z-score
UCGGAAG	-0.171
AAAUAAC	1.99
AGUCGAC	-0.251
CGUGUUC	-0.421

Block 2
Target: Interferon regulatory factor 5, full length, phosphomimetic (IRF5, Homo sapiens, UniProt Q13568-2, residues 1-514, S451D/S453D/S456D/S462D)
Technique: protein-binding microarray
Form: double-stranded DNA, one strand shown
Sample: in vitro
Concentration: 940 nM top
Setting: 60-bp whole probe
Together with: salmon DNA 0.4 mg/ml
Relative to: random background probes
Direction: higher = stronger binding
All sequences stand within: GCCTAGCAC … GTCTTGATTCGCTTGACGCTGCTG
Sequence	fitted relative affinity [z-score]
TTTTTTTTCTAACTAAAAATGTGCTAG	0.562
TTAGGTTTCGATCTCGGTTAGTGCTAG	11.7
TCACCTAGCCATTATGAGACTGTGCTA	-0.0272
GACGGTTTCGGGTATCGGGACGTGCTA	9.9
TCTCTTTTCACTTTCTTTACGTGCTAG	4.94
GACGATCTCGGTCTCGAGACGTGCTAG	1.46

Block 3
Target: Histone acetyltransferase KAT6A, winged helix 1, GST fusion (KAT6A, Homo sapiens, UniProt Q92794, residues 1-85)
Technique: protein binding microarray
Form: double-stranded DNA, one strand shown
Sample: in vitro
Concentration: not given
Setting: 8-mer, flanks averaged, mean of 2 arrays, mostly near background
Relative to: not given
Direction: higher = stronger binding
Construct (chain): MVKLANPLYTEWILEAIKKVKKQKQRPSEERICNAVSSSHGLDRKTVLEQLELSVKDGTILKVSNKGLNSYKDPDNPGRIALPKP
Sequence	E-score
CACGTCCA	-0.129
CTGTTAAG	-0.158
ACGATTGA	-0.123
GGGGGAAC	0.0578
TTATCAAA	-0.133
CAAATGAC	-0.16

Single results of other studies
Substance	target	test	test system	conditions	how to read	measurement	result
PhoQ, residues 284 288 289 292 302 303 NLAAMI	PhoP, residues 12 14 15 18 19 SEGLL (Escherichia coli, UniProt P23836)	Sort-seq, item: YFP reporter	E. coli	PhoQ-PhoP variant library, together with: 10 µM Mg2+	relative to: high Mg2+ state, higher = stronger signaling	fold induction	5.42

Excerpt of the above (block 3):
Sequence	E-score
CTGTTAAG	-0.158
